Published values from different studies.
A part holds a random share of what one study measured.
Chain of UniProt P10721 (whole entry, unmodified, looked up): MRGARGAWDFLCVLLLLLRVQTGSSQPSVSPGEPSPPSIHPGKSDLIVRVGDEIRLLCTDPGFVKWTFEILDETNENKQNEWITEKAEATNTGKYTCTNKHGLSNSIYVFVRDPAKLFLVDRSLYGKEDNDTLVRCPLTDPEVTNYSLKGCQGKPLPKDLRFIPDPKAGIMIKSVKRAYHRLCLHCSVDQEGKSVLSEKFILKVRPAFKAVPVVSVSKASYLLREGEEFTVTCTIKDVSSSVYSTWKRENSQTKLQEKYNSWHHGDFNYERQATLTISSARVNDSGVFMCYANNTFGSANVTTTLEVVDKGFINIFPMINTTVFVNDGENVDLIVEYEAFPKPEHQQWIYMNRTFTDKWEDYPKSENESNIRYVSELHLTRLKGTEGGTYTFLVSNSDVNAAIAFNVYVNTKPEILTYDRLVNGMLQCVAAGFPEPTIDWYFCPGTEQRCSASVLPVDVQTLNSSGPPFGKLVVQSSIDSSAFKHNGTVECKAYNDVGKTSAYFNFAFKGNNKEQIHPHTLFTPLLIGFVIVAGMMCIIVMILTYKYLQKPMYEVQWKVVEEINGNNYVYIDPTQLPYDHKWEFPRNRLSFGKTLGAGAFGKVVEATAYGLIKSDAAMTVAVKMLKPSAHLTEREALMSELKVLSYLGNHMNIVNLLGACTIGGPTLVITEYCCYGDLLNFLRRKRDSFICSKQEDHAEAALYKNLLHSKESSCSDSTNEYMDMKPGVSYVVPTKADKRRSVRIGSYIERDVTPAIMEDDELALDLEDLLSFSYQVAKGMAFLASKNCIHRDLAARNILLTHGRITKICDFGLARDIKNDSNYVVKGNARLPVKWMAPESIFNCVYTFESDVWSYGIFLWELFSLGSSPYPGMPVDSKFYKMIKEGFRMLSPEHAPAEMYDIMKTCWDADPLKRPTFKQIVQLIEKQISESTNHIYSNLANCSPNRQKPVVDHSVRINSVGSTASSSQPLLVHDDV
Chain of UniProt P42336 (whole entry, unmodified, looked up): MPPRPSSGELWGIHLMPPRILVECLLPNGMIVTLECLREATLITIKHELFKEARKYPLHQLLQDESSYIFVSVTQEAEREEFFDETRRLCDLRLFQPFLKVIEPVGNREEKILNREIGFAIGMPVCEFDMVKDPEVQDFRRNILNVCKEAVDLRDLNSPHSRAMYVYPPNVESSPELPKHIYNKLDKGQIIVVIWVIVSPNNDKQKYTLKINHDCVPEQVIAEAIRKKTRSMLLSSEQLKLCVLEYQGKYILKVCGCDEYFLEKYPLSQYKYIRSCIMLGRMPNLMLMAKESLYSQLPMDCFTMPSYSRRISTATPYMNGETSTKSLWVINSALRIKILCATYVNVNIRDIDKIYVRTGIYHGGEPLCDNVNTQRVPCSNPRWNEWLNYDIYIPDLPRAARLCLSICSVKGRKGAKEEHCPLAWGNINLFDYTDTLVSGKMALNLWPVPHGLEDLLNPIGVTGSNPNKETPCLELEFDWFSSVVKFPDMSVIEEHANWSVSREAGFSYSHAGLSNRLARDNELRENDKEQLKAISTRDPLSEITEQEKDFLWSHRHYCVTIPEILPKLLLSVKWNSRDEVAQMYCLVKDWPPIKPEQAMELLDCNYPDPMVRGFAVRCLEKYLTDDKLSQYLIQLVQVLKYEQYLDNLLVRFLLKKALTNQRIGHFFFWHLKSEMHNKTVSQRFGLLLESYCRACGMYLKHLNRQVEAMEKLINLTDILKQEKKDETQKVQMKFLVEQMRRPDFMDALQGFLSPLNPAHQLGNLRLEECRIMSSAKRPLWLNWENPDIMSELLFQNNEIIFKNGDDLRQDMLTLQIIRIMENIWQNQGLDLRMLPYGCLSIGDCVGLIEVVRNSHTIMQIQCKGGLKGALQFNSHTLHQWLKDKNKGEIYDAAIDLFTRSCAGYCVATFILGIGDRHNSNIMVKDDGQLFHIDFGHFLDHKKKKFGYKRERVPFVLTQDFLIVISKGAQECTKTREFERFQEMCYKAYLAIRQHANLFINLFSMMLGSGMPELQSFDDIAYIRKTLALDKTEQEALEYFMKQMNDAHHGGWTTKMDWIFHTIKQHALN
Chain of UniProt Q9UM73 (whole entry, unmodified, looked up): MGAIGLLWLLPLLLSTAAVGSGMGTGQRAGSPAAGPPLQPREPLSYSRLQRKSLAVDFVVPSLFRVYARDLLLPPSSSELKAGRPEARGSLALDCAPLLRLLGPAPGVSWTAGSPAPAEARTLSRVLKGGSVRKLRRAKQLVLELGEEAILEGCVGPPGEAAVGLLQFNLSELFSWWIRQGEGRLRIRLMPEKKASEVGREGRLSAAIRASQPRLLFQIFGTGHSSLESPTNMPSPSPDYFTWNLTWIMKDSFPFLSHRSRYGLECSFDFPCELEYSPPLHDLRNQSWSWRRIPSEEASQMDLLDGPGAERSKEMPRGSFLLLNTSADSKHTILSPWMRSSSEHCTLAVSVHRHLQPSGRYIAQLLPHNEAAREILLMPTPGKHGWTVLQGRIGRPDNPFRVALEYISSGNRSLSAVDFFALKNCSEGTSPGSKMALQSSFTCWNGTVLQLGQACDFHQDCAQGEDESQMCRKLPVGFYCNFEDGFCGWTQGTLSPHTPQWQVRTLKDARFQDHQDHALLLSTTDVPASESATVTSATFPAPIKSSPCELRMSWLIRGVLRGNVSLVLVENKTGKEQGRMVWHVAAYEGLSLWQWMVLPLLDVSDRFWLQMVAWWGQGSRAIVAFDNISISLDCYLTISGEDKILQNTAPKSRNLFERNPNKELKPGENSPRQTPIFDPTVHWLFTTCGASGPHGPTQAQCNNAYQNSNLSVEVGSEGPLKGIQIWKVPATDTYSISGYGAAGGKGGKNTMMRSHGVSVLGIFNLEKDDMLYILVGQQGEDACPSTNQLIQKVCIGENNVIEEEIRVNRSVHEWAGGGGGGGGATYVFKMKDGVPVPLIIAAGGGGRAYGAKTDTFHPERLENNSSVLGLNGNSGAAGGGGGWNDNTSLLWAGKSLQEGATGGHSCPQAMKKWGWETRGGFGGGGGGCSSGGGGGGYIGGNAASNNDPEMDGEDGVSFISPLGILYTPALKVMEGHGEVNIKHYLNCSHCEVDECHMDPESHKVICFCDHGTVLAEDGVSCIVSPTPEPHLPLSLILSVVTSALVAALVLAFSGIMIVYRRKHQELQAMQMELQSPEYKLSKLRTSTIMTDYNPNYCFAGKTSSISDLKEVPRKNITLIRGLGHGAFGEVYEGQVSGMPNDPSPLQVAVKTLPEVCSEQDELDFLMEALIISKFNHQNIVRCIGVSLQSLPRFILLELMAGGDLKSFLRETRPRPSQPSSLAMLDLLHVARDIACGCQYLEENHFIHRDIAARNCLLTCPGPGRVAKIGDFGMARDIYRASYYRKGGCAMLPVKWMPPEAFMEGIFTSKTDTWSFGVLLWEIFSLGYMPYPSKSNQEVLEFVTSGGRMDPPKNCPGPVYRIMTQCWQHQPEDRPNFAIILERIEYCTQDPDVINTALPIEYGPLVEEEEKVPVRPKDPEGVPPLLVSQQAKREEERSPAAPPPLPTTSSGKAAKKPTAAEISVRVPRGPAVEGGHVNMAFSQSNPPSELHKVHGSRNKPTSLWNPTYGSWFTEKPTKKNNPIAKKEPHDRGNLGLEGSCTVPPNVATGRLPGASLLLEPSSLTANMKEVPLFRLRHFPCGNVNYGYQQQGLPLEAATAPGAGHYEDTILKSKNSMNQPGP
Chain of UniProt Q02750 (whole entry, looked up): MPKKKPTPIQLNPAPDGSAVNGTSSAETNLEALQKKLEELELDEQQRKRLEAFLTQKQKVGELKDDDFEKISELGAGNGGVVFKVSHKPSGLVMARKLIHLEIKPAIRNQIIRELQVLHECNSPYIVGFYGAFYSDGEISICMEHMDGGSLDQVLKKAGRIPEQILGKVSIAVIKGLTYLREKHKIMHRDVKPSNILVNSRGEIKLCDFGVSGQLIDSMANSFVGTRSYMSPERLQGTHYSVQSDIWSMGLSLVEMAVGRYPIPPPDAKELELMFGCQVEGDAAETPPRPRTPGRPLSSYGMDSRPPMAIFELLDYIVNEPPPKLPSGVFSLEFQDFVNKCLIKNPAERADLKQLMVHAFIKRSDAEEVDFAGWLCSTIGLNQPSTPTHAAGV
Chain of UniProt P37173 (whole entry, looked up): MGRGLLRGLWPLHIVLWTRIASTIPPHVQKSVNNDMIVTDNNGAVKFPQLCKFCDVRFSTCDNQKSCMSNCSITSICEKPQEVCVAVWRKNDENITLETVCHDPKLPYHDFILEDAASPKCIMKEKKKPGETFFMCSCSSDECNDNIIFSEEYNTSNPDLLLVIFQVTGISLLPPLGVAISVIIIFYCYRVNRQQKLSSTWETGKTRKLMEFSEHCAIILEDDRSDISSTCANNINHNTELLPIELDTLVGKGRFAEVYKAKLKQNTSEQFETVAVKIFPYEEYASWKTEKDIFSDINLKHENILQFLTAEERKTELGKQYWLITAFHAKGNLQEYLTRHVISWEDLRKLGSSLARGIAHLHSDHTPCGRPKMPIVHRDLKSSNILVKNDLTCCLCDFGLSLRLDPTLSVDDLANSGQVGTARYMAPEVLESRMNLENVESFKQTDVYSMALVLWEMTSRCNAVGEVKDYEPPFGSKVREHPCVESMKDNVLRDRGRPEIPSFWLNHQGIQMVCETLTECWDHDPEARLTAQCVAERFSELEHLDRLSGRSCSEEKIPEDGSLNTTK

Set 1
Cell line: Huh-7
Tested at: 10 µM
Time: 24 h
Measurement: viability
CC(=O)OCC[N+](C)(C)C: 99.1%
C1CCC(C(CC2CCCCN2)C2CCCCC2)CC1 (stereo not drawn): 79.9%
NS(=O)(=O)c1cc2c(cc1Cl)NC(C1CC3C=CC1C3)NS2(=O)=O (stereo not drawn): 102%
Cc1cccc(N(C)C(=S)Oc2ccc3ccccc3c2)c1: 90.4%
CCCC(=O)Nc1ccc(OCC(O)CNC(C)C)c(C(C)=O)c1 (stereo not drawn): 103%
O=C(O)CCC(=O)OC[C@@H](NC(=O)C(Cl)Cl)[C@H](O)c1ccc([N+](=O)[O-])cc1: 97.9%

Set 2
SMILES: CC#CC(=O)N1CCC[C@H]1c1nc(-c2ccc(C(=O)Nc3ccccn3)cc2)c2c(N)nccn12
Action: inhibitor
Tested at: 1 µM
Measurement: inhibition
Ribosomal protein S6 kinase alpha-1, kinase domain 1 (RPS6KA1, Homo sapiens, UniProt Q15418): 7%
Epidermal growth factor receptor (EGFR, Homo sapiens, UniProt P00533, G719S); enzyme activity: 1%
Serine/threonine-protein kinase 36 (STK36, Homo sapiens, UniProt Q9NRP7); enzyme activity: 0%
Serine/threonine-protein kinase 10 (STK10, Homo sapiens, UniProt O94804); enzyme activity: 18%
Mitogen-activated protein kinase 4 (MAPK4, Homo sapiens, UniProt P31152); enzyme activity: 0%
Ribosomal protein S6 kinase alpha-4, C-terminal kinase domain (RPS6KA4, Homo sapiens, UniProt O75676): 16%
Rhodopsin kinase GRK1 (GRK1, Homo sapiens, UniProt Q15835); enzyme activity: 28%
TGF-beta receptor type-2 (TGFBR2, Homo sapiens, UniProt P37173); enzyme activity: 0%

Set 3
Structure (SMILES): Cn1nc(C(=O)NCc2ccc(C(=O)O)cc2)cc1-c1ccc2[nH]ccc2c1
Effect on: cell-free assay
Technique: competition with immobilised ligand
Tested at: 0.1 µM
Measurement: remaining binding
Serine/threonine-protein kinase Nek11 (NEK11, Homo sapiens, UniProt Q8NG66): 83%
Dual specificity mitogen-activated protein kinase kinase 1 (MAP2K1, Homo sapiens, UniProt Q02750): 91%
Mitogen-activated protein kinase 10 (MAPK10, Homo sapiens, UniProt P53779): 76%
Serine/threonine-protein kinase pim-3 (PIM3, Homo sapiens, UniProt Q86V86): 91%
Receptor-interacting serine/threonine-protein kinase 4 (RIPK4, Homo sapiens, UniProt P57078): 68%
Mast/stem cell growth factor receptor Kit, autoinhibited (KIT, Homo sapiens, UniProt P10721): 90%
Activin receptor type-2A (ACVR2A, Homo sapiens, UniProt P27037): 98%
Serine/threonine-protein kinase PLK3 (PLK3, Homo sapiens, UniProt Q9H4B4): 94%
Ribosomal protein S6 kinase alpha-3, N-terminal kinase domain (RPS6KA3, Homo sapiens, UniProt P51812): 78%
Mitogen-activated protein kinase kinase kinase 1 (MAP3K1, Homo sapiens, UniProt Q13233): 65%
Mitogen-activated protein kinase 13 (MAPK13, Homo sapiens, UniProt O15264): 91%
Serine/threonine-protein kinase WNK3 (WNK3, Homo sapiens, UniProt Q9BYP7): 67%
Phosphatidylinositol 4,5-bisphosphate 3-kinase catalytic subunit alpha isoform (PIK3CA, Homo sapiens, UniProt P42336, H1047Y): 100%
Phosphatidylinositol 4,5-bisphosphate 3-kinase catalytic subunit alpha isoform (PIK3CA, Homo sapiens, UniProt P42336, E545A): 77%
Serine/threonine-protein kinase WNK2 (WNK2, Homo sapiens, UniProt Q9Y3S1): 70%
Myosin light chain kinase family member 4 (MYLK4, Homo sapiens, UniProt Q86YV6): 76%
Serine/threonine-protein kinase PAK 2 (PAK2, Homo sapiens, UniProt Q13177): 23%
Serine/threonine-protein kinase PAK 4 (PAK4, Homo sapiens, UniProt O96013): 86%
ALK tyrosine kinase receptor (ALK, Homo sapiens, UniProt Q9UM73, C1156Y): 65%
Mast/stem cell growth factor receptor Kit (KIT, Homo sapiens, UniProt P10721, V559D): 90%
Cyclin-dependent kinase 13 (CDK13, Homo sapiens, UniProt Q14004): 72%
Serine/threonine-protein kinase PRP4 homolog (PRPF4B, Homo sapiens, UniProt Q13523): 100%

Set 4
SMILES: CN1CCN(C(=O)c2ccc(NC(=O)Nc3ccc(N(C)c4ccnc(Nc5ccc(CS(C)(=O)=O)cc5)n4)cc3)cc2)CC1
Tested at: 1 µM
Measurement: remaining binding
Inhibitor of nuclear factor kappa-B kinase subunit epsilon (IKBKE, Homo sapiens, UniProt Q14164); competitive binding; IKK-epsilon: 38%
Serine/threonine-protein kinase tousled-like 1 (TLK1, Homo sapiens, UniProt Q9UKI8); competitive binding panel; relative to: vehicle: 86%
Dual specificity mitogen-activated protein kinase kinase 3 (MAP2K3, Homo sapiens, UniProt P46734); competitive binding panel, measured: MEK3; relative to: vehicle: 14%
Mitogen-activated protein kinase kinase kinase 2 (MAP3K2, Homo sapiens, UniProt Q9Y2U5); competitive binding panel; relative to: vehicle: 38%
Casein kinase I isoform alpha (CSNK1A1, Homo sapiens, UniProt P48729); competitive binding panel; relative to: vehicle: 85%
Serine/threonine-protein kinase MARK1 (MARK1, Homo sapiens, UniProt Q9P0L2); competitive binding panel; relative to: vehicle: 44%
Bone morphogenetic protein receptor type-1B (BMPR1B, Homo sapiens, UniProt O00238); competitive binding panel; relative to: vehicle: 1.1%
ALK tyrosine kinase receptor (ALK, Homo sapiens, UniProt Q9UM73); competitive binding panel; relative to: vehicle: 76%
RAC-beta serine/threonine-protein kinase (AKT2, Homo sapiens, UniProt P31751); competitive binding panel; relative to: vehicle: 100%

Excerpt of the above (set 2):
Serine/threonine-protein kinase 10 (STK10, Homo sapiens, UniProt O94804); enzyme activity: 18%
Mitogen-activated protein kinase 4 (MAPK4, Homo sapiens, UniProt P31152); enzyme activity: 0%
Ribosomal protein S6 kinase alpha-4, C-terminal kinase domain (RPS6KA4, Homo sapiens, UniProt O75676): 16%
Rhodopsin kinase GRK1 (GRK1, Homo sapiens, UniProt Q15835); enzyme activity: 28%
TGF-beta receptor type-2 (TGFBR2, Homo sapiens, UniProt P37173); enzyme activity: 0%
